Experimental data of several laboratories.
Protocols differ between the studies behind these lines. ± marks the error that the study gave.
Ovol1: Ovol1 (Mus musculus, UniProt Q9WTJ2)
UniProt Q9WTJ2, sequence (whole entry, looked up): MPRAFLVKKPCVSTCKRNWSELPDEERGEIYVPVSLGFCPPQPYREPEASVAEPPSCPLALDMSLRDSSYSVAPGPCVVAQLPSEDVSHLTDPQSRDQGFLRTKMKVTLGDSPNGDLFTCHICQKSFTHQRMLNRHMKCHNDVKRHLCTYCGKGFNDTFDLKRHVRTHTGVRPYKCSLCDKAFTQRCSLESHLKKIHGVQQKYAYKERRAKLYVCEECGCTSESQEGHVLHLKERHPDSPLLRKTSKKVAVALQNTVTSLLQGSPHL
RIGI: RIGI 2-925 (Homo sapiens, UniProt O95786)
UniProt O95786, sequence (whole entry, looked up): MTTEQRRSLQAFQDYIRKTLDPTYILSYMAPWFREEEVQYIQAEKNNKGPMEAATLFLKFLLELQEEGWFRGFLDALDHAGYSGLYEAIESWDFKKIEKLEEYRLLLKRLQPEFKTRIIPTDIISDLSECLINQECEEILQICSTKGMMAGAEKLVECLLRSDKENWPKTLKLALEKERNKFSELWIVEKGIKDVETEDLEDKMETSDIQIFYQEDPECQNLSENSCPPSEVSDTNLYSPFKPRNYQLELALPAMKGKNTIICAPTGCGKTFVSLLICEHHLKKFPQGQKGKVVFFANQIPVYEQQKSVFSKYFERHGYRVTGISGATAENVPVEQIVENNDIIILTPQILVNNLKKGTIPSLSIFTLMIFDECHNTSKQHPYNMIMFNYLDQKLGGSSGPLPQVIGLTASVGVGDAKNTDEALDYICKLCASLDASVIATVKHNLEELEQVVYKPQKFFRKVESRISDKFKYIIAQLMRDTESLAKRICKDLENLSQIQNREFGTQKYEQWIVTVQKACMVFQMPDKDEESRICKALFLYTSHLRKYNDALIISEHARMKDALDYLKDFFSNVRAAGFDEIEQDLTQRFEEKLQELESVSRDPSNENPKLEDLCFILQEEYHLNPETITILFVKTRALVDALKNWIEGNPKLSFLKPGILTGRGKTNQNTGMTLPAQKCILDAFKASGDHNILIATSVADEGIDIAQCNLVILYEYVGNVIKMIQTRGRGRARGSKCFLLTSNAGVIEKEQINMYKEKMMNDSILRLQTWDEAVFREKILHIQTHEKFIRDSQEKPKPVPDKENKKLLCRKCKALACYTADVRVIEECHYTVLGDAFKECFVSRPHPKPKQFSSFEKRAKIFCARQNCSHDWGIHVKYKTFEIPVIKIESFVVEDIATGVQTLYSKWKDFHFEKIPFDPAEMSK
WDR33 full length assumed: WDR33 full length assumed (Homo sapiens, UniProt Q9C0J8)
UniProt Q9C0J8, sequence (whole entry, looked up): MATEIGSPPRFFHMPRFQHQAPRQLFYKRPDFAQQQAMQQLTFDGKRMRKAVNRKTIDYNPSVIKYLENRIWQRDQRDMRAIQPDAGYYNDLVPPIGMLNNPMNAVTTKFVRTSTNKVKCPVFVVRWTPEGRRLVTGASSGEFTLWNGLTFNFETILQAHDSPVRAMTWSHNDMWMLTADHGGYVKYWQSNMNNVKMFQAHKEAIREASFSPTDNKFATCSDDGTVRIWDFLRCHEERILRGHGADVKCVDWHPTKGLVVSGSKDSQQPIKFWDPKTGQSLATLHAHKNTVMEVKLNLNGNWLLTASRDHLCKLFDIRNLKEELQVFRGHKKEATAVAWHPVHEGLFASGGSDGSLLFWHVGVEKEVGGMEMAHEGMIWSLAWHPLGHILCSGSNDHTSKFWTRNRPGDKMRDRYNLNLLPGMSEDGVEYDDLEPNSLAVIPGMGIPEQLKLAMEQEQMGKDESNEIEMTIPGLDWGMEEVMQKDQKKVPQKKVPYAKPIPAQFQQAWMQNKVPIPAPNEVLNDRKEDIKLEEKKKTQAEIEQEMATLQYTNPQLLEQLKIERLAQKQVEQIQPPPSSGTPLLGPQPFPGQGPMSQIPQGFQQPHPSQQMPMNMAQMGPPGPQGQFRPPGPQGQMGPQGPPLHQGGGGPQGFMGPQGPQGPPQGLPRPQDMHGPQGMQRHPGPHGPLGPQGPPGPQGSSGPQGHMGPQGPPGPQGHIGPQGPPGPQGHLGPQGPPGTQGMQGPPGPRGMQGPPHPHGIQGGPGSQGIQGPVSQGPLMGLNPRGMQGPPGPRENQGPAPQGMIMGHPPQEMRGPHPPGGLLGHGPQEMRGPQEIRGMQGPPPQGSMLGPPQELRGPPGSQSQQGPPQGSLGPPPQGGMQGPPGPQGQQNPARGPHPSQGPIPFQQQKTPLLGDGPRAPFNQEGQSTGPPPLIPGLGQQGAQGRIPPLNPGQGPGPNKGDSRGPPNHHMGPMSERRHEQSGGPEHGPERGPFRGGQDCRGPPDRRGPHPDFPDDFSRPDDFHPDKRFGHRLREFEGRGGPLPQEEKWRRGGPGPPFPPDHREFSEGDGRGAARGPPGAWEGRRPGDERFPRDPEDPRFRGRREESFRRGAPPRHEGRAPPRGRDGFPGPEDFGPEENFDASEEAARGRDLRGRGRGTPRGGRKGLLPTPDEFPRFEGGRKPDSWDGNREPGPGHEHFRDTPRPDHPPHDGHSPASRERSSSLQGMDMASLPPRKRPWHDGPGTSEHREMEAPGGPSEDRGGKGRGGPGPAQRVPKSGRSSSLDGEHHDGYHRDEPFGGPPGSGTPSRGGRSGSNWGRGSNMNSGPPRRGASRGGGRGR
bin: bin 311-408 (Drosophila melanogaster, UniProt Q9VS05)
UniProt Q9VS05, sequence (whole entry, looked up): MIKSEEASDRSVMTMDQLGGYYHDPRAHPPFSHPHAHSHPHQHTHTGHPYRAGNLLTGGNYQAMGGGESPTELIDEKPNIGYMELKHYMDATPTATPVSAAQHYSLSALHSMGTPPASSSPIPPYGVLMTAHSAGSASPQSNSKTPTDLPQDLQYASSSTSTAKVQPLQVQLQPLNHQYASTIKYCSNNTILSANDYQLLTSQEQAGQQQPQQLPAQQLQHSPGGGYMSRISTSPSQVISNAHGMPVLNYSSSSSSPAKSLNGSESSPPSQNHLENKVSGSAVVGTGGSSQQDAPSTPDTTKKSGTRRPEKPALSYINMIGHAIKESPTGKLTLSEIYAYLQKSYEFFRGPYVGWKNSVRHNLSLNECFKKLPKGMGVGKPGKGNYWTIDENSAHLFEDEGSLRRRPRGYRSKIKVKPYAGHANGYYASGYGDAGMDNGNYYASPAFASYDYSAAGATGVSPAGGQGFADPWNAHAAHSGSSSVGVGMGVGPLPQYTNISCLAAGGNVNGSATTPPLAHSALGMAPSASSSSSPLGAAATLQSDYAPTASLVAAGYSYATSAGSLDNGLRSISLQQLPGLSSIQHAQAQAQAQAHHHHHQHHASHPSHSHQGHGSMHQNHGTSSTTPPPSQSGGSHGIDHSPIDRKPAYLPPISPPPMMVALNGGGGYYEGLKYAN
WRKY45-1: WRKY45-1 104-182 (Oryza sativa, UniProt Q5W6D6)
UniProt Q5W6D6, sequence (whole entry, looked up): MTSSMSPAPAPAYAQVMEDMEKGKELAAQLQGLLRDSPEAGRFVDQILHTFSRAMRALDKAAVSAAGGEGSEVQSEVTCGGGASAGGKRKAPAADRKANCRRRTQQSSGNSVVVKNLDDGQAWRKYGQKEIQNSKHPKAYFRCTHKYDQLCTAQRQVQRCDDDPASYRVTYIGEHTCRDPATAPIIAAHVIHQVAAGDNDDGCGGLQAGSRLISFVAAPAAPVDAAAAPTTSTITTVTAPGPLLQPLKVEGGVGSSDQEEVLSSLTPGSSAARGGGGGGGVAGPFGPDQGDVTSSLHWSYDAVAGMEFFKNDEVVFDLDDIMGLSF
cdc6-1 full length assumed: cdc6-1 full length assumed (Saccharolobus solfataricus, UniProt Q980N4)
UniProt Q980N4, sequence (whole entry, looked up): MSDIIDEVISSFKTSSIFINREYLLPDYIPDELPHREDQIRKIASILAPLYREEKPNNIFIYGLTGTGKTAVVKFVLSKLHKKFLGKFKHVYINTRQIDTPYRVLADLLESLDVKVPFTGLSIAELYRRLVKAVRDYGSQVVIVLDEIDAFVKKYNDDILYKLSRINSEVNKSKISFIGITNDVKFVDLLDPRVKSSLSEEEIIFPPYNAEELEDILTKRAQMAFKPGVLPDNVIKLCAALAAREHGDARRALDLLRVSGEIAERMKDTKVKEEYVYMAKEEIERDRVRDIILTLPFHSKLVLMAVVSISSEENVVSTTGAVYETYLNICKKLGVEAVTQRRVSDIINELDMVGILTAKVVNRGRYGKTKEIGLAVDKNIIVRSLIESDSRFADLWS
Heat shock factor protein HSF8: Heat shock factor protein HSF8 (Solanum lycopersicum, UniProt Q40152)
UniProt Q40152, sequence (whole entry, looked up): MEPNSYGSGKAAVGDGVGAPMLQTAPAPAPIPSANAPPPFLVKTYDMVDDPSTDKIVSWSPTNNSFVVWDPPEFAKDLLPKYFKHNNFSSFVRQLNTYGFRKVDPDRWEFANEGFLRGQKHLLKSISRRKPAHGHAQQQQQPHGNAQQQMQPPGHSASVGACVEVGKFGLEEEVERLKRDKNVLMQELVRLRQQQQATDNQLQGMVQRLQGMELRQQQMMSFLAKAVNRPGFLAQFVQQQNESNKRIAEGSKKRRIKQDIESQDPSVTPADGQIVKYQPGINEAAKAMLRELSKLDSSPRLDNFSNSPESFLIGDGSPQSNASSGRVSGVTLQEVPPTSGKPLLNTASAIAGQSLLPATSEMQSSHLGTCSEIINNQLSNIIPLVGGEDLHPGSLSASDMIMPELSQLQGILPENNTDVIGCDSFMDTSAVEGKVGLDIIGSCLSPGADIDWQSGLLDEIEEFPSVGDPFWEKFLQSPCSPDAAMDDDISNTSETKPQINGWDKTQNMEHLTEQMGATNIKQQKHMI
UniProt Q9Y5A9, sequence (whole entry, looked up): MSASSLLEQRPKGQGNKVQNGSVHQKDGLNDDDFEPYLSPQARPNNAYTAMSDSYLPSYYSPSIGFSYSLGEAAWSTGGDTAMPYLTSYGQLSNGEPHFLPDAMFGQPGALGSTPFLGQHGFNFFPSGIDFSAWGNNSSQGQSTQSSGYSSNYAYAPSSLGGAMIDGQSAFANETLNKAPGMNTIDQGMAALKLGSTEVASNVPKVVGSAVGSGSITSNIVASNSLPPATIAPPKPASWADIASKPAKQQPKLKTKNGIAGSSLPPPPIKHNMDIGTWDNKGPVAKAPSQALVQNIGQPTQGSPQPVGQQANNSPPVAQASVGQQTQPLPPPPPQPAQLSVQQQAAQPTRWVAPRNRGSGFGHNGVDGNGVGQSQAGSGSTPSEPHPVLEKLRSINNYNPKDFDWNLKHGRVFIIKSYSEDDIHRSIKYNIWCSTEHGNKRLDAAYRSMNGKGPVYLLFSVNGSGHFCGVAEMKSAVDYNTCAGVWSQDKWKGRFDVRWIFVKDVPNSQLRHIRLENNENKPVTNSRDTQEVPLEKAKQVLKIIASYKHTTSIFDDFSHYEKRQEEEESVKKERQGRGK

Oligonucleotide | target | test | system | conditions | quantity | result
CCTTCATCAAAGCCGTTACTTTGAACACAG (dsDNA) | Ovol1 | EMSA | double-stranded DNA, one strand shown | – | binding | binds
ATTGCGTATAATGTGTGGA (ssDNA) | rpoD full length assumed I48S (Escherichia coli, UniProt P00579) | UV crosslinking | single-stranded DNA | free sigma70 without core | binding | binds
RNA 1 GCAUGCGACCUCUGUUUGA / RNA 2 UCAAACAGAGGUCGCAUGC (dsRNA; 5'-triphosphate, duplex, 19 bp) | RIGI | MST | double-stranded RNA | together with: ADP-AlFx | Kd | 1.6 ± 0.9 nM
GGGUAACCAUUAUAACCUCCAAUAAAGAACUUAACAACAC (ssRNA) | WDR33 full length assumed | UV cross-linking | RNA | within CPSF complex | binding | binds
ATTTATTATTGTGACACAAGCTTAGT (dsDNA) | STM full length assumed (Arabidopsis thaliana, UniProt Q38874) | EMSA | double-stranded DNA, one strand shown | – | binding | binds
TTAATGGTTTGCCGTTGTCGCCA (dsDNA) | bin | competition | double-stranded DNA, one strand shown | not purified | binding | no binding
ACAGCCTGACAGGG (dsDNA) | WRKY45-1 | EMSA | double-stranded DNA, one strand shown | – | binding | no binding
TCCTTTAATTTGTCTCTCTGTAAATTTCCTACGTTTCCAATGACAATCATTCCATTTTACG (dsDNA) | cdc6-1 full length assumed | EMSA | double-stranded DNA, one strand shown | – | binding | binds
CUAUUAACGCAAUUACGCAAUAAUAUUUAUAUUAAACUCC (ssRNA) | CTNNB1 full length assumed (Homo sapiens, UniProt P35222) | EMSA | RNA | – | binding | no binding
GGGUAACCAUUAUAACCUGCAAUAAACAACUUAACAACAC (ssRNA) | WDR33 full length assumed | UV cross-linking | RNA | within CPSF complex | binding | binds
CAATACAATTGTCTCTGTGTAGTAAATTTCCTACGTTTCATCTGAAAATCTAGCTATTAGAG (dsDNA) | cdc6-1 full length assumed | EMSA | double-stranded DNA, one strand shown | – | binding | binds
CTATGAAGCTTCACAAGAAG (dsDNA) | Heat shock factor protein HSF8 | EMSA | double-stranded DNA, one strand shown | – | binding | binds
GGGUAAUGCCCCUCCCCUCUCACACCUCCGGGAUCAGUGACCGGAGGGCGGUCGGGGAGGGGUGUCCU (structured RNA (Pyrococcus abyssi); hairpin, internal loop, K-turn) | truB full length assumed (Pyrococcus abyssi, UniProt Q9V1A5) | competition | folded RNA | – | binding | no binding
GTCGACCAGCTGAGTCGACCAGCTG (ssDNA; N6-methyl-dA) | YTHDF2 391-579 (Homo sapiens, UniProt Q9Y5A9) | pull-down | single-stranded DNA | – | binding | binds
TTAATGTTGTTTCGTTTCCGCCA (dsDNA) | bin | competition | double-stranded DNA, one strand shown | not purified | binding | no binding
AAATAGGTGGGTTGTCATTTCCCAACGCAT (dsDNA) | Ovol1 | EMSA | double-stranded DNA, one strand shown | – | binding | no binding
GGACGUACGUUUCGACGUACGUCC (structured RNA; 5'-OH, hairpin, 10 bp) | RIGI | MST | folded RNA | together with: ADP-AlFx | Kd | 3.9 ± 1.9 nM
GAATCTTGGAAGCATACAATGTGGAGAC (ssDNA) | ZTA1 1-336 (Komagataella phaffii, UniProt F2QTB9) | EMSA | single-stranded DNA | – | binding | binds
AGTATGTGACAGCC (dsDNA) | WRKY45-1 | EMSA | double-stranded DNA, one strand shown | – | binding | no binding
DNA 1 AGCGTGGGAGTGTTA / DNA 2 TAACACTCCCACGC (dsDNA) | WT1 ZF1-4, -KTS, 319-437 (Homo sapiens) | fluorescence polarization | double-stranded DNA | – | binding | binds
TTAATGGTTTGTTGTTGTCGCCA (dsDNA) | bin | EMSA | double-stranded DNA, one strand shown | not purified | binding | binds
TGATATAATCTTGATCATGTTTGTTACACTTGTCA (dsDNA) | Heat shock factor protein HSF8 | EMSA | double-stranded DNA, one strand shown | – | binding | no binding
